# Published values from different studies.
# Numbers after ± are the reported error. Ends that are not written are not given here.
# HCRTR1: Orexin/Hypocretin receptor type 1 (HCRTR1, Homo sapiens, UniProt O43613)
# UniProt O43613, sequence (whole entry, looked up): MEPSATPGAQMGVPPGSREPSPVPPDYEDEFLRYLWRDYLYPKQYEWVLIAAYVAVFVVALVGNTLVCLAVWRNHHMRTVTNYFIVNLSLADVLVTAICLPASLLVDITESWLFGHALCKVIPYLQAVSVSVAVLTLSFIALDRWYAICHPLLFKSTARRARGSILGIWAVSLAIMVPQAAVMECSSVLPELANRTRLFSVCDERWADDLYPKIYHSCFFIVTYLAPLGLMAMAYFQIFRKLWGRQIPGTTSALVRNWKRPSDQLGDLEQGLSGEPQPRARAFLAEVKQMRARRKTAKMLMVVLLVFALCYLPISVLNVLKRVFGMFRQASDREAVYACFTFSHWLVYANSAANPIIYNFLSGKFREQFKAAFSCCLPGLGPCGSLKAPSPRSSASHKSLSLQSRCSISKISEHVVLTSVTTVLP
# B1: enzyme (Bacillus pumilus, UniProt A8FFI9); chain EARSIAWSVDEFFKNREGTFVIQEVKEKSPWVYNKKRAKERFAPQSTFKVANALIGLQTGAVRDEYDIKYWDGVKREIDNWNRDHTLGSGMRDSVVWYYQAMARDIGEERMNHWVKAIHYGNKDISGGIDQFWLSSTLRISPIEQVRFLKQLYEETLPFDLKNMRTVKRMMVQEEEKHATLYGKTGSGSDIGWYVGFIKHEHKTYILATNIKGTGIEAKDITYRILKKYHLMEASV
# B2: UGT1A9 (Homo sapiens, UniProt O60656); chain GKLLVVPMDGSHWFTMRSVVEKLILRGHEVVVVMPEVSWQLGRSLNCTVKTYSTSYTLEDLDREFKAFAHAQWKAQVRSIYSLLMGSYNDIFDLFFSNCRSLFKDKKLVEYLKESSFDAVFLDPFDNCGLIVAKYFSLPSVVFARGILCHYLEEGAQCPAPLSYVPRILLGFSDAMTFKERVRNHIMHLEEHLLCHRFFKNALEIASEILQTPVTEYDLYSHTSIWLLRTDFVLDYPKPVMPNMIFIGGINCHQGKPLPMEFEAYINASGEHGIVVFSLGSMVSEIPEKKAMAIADALGKIPQTVLWRYTGTRPSNLANNTILVKWLPQNDLLGHPMTRAFITHAGSHGVYESICNGVPMVMMPLFGDQMDNAKRMETKGAGVTLNVLEMTSEDLENALKAVINDKSYKENIMRLSSLHKDRPVEPLDLAVFWVEFVMRHKGAPHLRPAAHDLTWYQYHSLDVIGFLLAVVLTVAFITFKCCAYGYRKCLGKKGRVKKAHKSKTH
Molecule,target or system,test,system,conditions,scale,measurement,value
COc1cc2c(cc1OC)C(Cc1ccc(C(C)C)cc1)N(CC(=O)NCc1ccccc1)CC2 (centres unmarked),HCRTR1,"calcium signal, antagonist, fluorescence",,,,Kb,85 nM
"KCNTATCATQRLANFLVHSSNNFGAILSSTNVGSNTY (amylin (human); not fully specified (C-terminus, bridges); cysteine pairing not given here; sequence looked up)",RIN5fm,"cell viability, MTT",peptide,20 h,,lowest toxic concentration,1 nM
rnpA F107W (Bacillus subtilis),,"NMR, refers to: His22",,"25 °C, 1.00 M NaCl, folded, sulfate-bound, numbering of the source, with: sulfate 20 mM",,pKa,5.99
epidermal growth factor,MDCK,transwell transcytosis,,"concentration not given, 120 min, pH 7.4",reference: added tracer,transport apical to basal,< 1%
insulin degludec,,,"human end-stage renal disease, serum","subcutaneous, 0.4 U/kg, dosed 13 h before hemodialysis",,AUC(13-17 h),0.0101 µM·h
CC(C)[C@H](NC(=O)[C@@H]1CCCN1C(=O)[C@H](CCCNC(=N)N)NC(=O)[C@H](CS)NC(=O)[C@H](Cc1c[nH]c2ccccc12)NC(=O)[C@H](CCCNC(=N)N)NC(=O)[C@@H](Cc1ccccc1)NC(=O)[C@H](Cc1c[nH]cn1)NC(=O)[C@H](CCC(=O)O)NC(=O)[C@H](CS)NC(=O)[C@H](CS)NC(=O)[C@H](CCCCN)NC(=O)[C@@H]1CC(=O)N[C@@H](CCCNC(=N)N)C(=O)N[C@@H](C)C(=O)N[C@@H](CC(=O)O)C(=O)N[C@H](Cc2ccc(O)cc2)C(=O)N1)C(N)=O [technetium-99m labelled],,,"C57 mice, tumor","intravenous, 0.037 MBq, 2 h",,tissue uptake,19.9 ± 4.02 %ID/g
COc1cc2c(cc1OC)C(Cc1ccc(OS(=O)(=O)c3ccccc3)c(OC)c1)N(CC(=O)NCc1ccccc1)CC2 (centres unmarked),HCRTR1,"calcium signal, antagonist, fluorescence",,,,Kb,1820 nM
Insulin human,,ELISA,"rat, cerebellum","intranasal, 20 µg per nostril, 120 min",,concentration,86.7 ± 81 pg/mg tissue
B1 (enzyme),CCN1CCN(C(=O)N[C@@H](C(=O)N[C@@H]2C(=O)N3[C@@H]2SC(C)(C)[C@@H]3C(=O)O)c2ccccc2)C(=O)C1=O,steady-state kinetics,,pH 7,,kcat/Km,3.9e+06 ± 600000 M⁻¹ s⁻¹
B2 (UGT1A9),COc1cccc(-c2oc3ccccc3c(=O)c2O)c1OC,steady-state kinetics,,"pH 7.4, 37 °C",,Vmax,0.0044 µmol/min/mg
recombinant interleukin-13,human monocyte-derived macrophages,,,"10 ng/mL, 120 h",reference: untreated,fibrillar amyloid beta degradation,no effect

# For quick reference, copied from above:
Molecule,target or system,test,system,conditions,scale,measurement,value
CC(C)[C@H](NC(=O)[C@@H]1CCCN1C(=O)[C@H](CCCNC(=N)N)NC(=O)[C@H](CS)NC(=O)[C@H](Cc1c[nH]c2ccccc12)NC(=O)[C@H](CCCNC(=N)N)NC(=O)[C@@H](Cc1ccccc1)NC(=O)[C@H](Cc1c[nH]cn1)NC(=O)[C@H](CCC(=O)O)NC(=O)[C@H](CS)NC(=O)[C@H](CS)NC(=O)[C@H](CCCCN)NC(=O)[C@@H]1CC(=O)N[C@@H](CCCNC(=N)N)C(=O)N[C@@H](C)C(=O)N[C@@H](CC(=O)O)C(=O)N[C@H](Cc2ccc(O)cc2)C(=O)N1)C(N)=O [technetium-99m labelled],,,"C57 mice, tumor","intravenous, 0.037 MBq, 2 h",,tissue uptake,19.9 ± 4.02 %ID/g
